Published values collected from several papers.
Each line is one published result; not all experiments were run side by side. Several values in a cell are separate wells, animals, samples, runs or records. ± gives the spread as reported. Values after ≈ are worked out from the molar mass of the structure shown.

| SMILES | assay | system | setting | scale | endpoint | result |
| --- | --- | --- | --- | --- | --- | --- |
| CC1(C)C(=CC=C2CCCC(C=CC3=[N+](CCC[N+](C)(C)C)c4ccc(S(=O)(=O)O)cc4C3(C)C)=C2SCCOCCOCCC(=O)O)N(CCC[N+](C)(C)C)c2ccc(S(=O)(=O)O)cc21 | – | PBS with FBS | – | – | quenching onset concentration | 5 µM |
| O=C([O-])CN1CCN(CC(=O)[O-])CCN(CC(=O)[O-])CC1.[44Sc+3] | – | BALB/c mouse, urine | intravenous, 1 h | – | uptake | 195 ± 273 %ID/g |
| Cc1ncc2c(n1)CN(C(=O)Nc1nc(-c3cccs3)ccc1N)C2 | – | C57BL/6 mice, brain | oral, 10 mg/kg | – | unbound brain Cmax | 86 ng/mL |
| C=CC(=O)Nc1cc(Nc2nccc(-c3cn(C)c4ccccc34)n2)c(OC)cc1N(C)CCNC | storage stability | human dried blood spot | 10 d, -80 °C, LLOQ level | – | recovery | 92.7% |
| O=C(c1ccc(-c2cccc(C(F)(F)F)c2)cc1)N1CCN(c2ncccn2)CC1 | metabolic stability | rat, liver microsomes | – | – | microsomal CLint | 242 µL/min/mg |
| O=C(c1ccccc1)N1C(c2ccc(OCC3CCN(CCCF)C3)cc2)c2ccc(O)cc2CC12CC2 (centres unmarked) | – | C57BL/6J mouse, plasma | intraperitoneal, 25 mg/kg | – | AUC(0-inf) | 7380 ng·h/mL and 9450 ng·h/mL |
| COc1cccc(OC)c1-c1cc(C(=O)NC2(C(=O)O)C3CC4CC(C3)CC2C4)nn1-c1ccc(C(=O)N(C)CCOCCN(C)C(=O)[C@H](CCCCNC(=O)[C@H](CC(C)C)NC(=O)C2OC2C(=O)O)NC(=O)CN2CCN(CC(=O)[O-])CCN(CC(=O)[O-])CCN(CC(=O)[O-])CC2)cc1C(C)C.[177Lu+3] (mixture of isomers) | – | HT-29 xenograft mouse, kidney | 168 h | reference: initial uptake | renal retention | 12 ± 6% |
| Cc1nn(-c2nc3c(F)cc(F)cc3s2)c(O)c1C(c1ccc(C(F)(F)F)cc1)c1c(C)nn(-c2nc3c(F)cc(F)cc3s2)c1O | – | ICR mouse, plasma | intraperitoneal, 10 mg/kg | – | elimination rate constant | 0.134 h⁻¹ and 0.0772 h⁻¹ and 0.103 h⁻¹ |
| CN([O-])C(=O)CN1CCNCCN(CC(=O)N(C)[O-])CC1.[89Zr+4] | radio-TLC | human serum | 7 days, run 2 | – | intact complex | 100% |
| COc1cccc(OC)c1-c1cc(C(=O)NC2(C(=O)O)C3CC4CC(C3)CC2C4)nn1-c1ccc(C(=O)NCCNC(=O)[C@H](CCCCNC(=O)[C@H](CC(C)C)NC(=O)C2OC2C(=O)O)NC(=O)CN2CCN(CC(=O)[O-])CCN(CC(=O)[O-])CCN(CC(=O)[O-])CC2)cc1C(C)C.[177Lu+3] (mixture of isomers) | – | mouse, HT-29 xenograft, brain | 4 h post injection | – | tissue uptake | 0.188 %ID/g |
| CN([O-])C(=O)CN1CCN(CC(=O)N(C)[O-])CCN(Cc2ccccn2)CC1.[89Zr+4] | radio-TLC | human serum | 7 days, run 3 | – | intact complex | 86.3% |
| C[N+](C)(CCOCCOCCOCCNC(=S)Nc1ccc(C[C@H]2CN(CC(=O)[O-])CCN(CC(=O)[O-])CCN2CC(=O)[O-])cc1)C[c-]1cccc1.[64Cu+2].[Fe+2].c1cc[cH-]c1 | – | nude mice, BxPC-3 xenograft, large intestine | 8 h, pretargeted, 72 h lag time | – | large intestine uptake | 5.2 ± 0.8 %ID/g |
| COC1C=COC2(C)Oc3c(C)c(O)c4c(c3C2=O)C2=NC3(CCN(CC(C)C)CC3)NC2=C(NC(=O)C(C)=CC=CC(C)C(O)C(C)C(O)C(C)C(OC(=O)Nc2cnccn2)C1C)C4=O (centres unmarked) | – | CD-1 mouse female, plasma | intravenous, 5 mg/kg | – | elimination rate constant | 0.176 h⁻¹ |
| CC(=O)N([O-])CCCCCNC(=O)CCC(=O)N([O-])CCCCCNC(=O)CCC(=O)N([O-])CCCCCN.[89Zr+4] | radio-TLC | aqueous buffer | 7 d, pH 5, 37 °C, 89Zr-labelled complex, with: DTPA 100-fold excess | – | intact complex | 92.2 ± 0.8% |
| O=C(Nc1ccccc1)C1(C(F)(F)F)CCC1 | – | water | 24 h | – | logP | 2.51 |
| O=c1c2ccccc2[se]n1CCCCCCn1[se]c2ccccc2c1=O | shake-flask, RP-HPLC | 10% PEG4000 solution | 24 h, 25 °C | – | solubility | 8 ± 1 µg/mL (≈ 16.7 µM) |

| SMILES | assay | system | setting | scale | endpoint | result |
| --- | --- | --- | --- | --- | --- | --- |
| CCC(C(=O)Nc1ccc(C(N)=O)c(F)c1)n1cc(OC)c(-c2cc(Cl)ccc2-n2cc(C(F)(F)F)nn2)cc1=O (centres unmarked) | – | healthy male humans | 50 mg, required by protocol, with: antacid | – | procedure-related adverse events | 7.1% |
| CC[C@H](C)[C@@H](C(=O)N[C@@H](CC(C)C)C(=O)N[C@@H](CO)C(=O)N[C@@H](CO)C(=O)N[C@H](C(=O)N[C@@H](CC(N)=O)C(=O)N[C@H](C(=O)NCC(=O)N[C@@H](CO)C(=O)N[C@@H](CC(N)=O)C(=O)N[C@H](C(=O)N1CCC[C@H]1C(N)=O)[C@@H](C)O)C(C)C)[C@@H](C)O)N(C)C(=O)[C@H](C)NC(=O)CN(C)C(=O)[C@H](Cc1ccccc1)NC(=O)[C@H](CC(N)=O)NC(=O)[C@H](CC(N)=O)NC(=O)[C@H](CO)NC(=O)[C@H](CO)NC(=O)[C@H](Cc1c[nH]cn1)NC(=O)[C@H](Cc1c[nH]cn1)NC(=O)[C@H](CC(C)C)NC(=O)[C@H](Cc1ccccc1)NC(=O)[C@H](CCC(=O)O)NC(=O)[C@H](C)NC(=O)[C@H](CC(C)C)NC(=O)[C@H](CCCNC(=N)N)NC(=O)[C@H](CCC(N)=O)NC(=O)[C@@H](NC(=O)[C@H](C)NC(=O)[C@@H]1CSSC[C@H](NC(=O)[C@H](CCCNC(=N)N)NC(=O)CC[C@H](NC(=O)CCCCCCCCCCCCCCCCCCC(=O)O)C(=O)O)C(=O)N[C@@H](CC(N)=O)C(=O)N[C@@H]([C@@H](C)O)C(=O)N[C@@H](C)C(=O)N[C@@H]([C@@H](C)O)C(=O)N1)[C@@H](C)O | RP-HPLC | water | 1.0 mg/mL, 7 days, pH 7.5, 40 °C | – | main peak area remaining | 64% |
| CCCCN1C(=O)c2cccc3c(NCCCN4CCOCC4)ccc(c23)C1=O | – | ethyl acetate | – | – | fluorescence lifetime | 9.6 ns |
| O=C([O-])CN1CCN(CC(=O)[O-])CCN(CC(=O)NC[C@H]2CC[C@H](C(=O)N[C@@H](Cc3ccc4ccccc4c3)C(=O)NCCCC[C@H](NC(=O)N[C@@H](CCC(=O)O)C(=O)O)C(=O)O)CC2)CCN(CC(=O)[O-])CC1.[68Ga+3] | – | ICR mouse, blood | intravenous, dose not given | – | elimination half-life | 41.8 min |
| CC[C@H](C)[C@@H]1NC(=O)[C@H](Cc2ccc(O)cc2)NC(=O)CCCSC[C@@H](C(=O)N(CC(=O)N[C@@H](CC(C)C)C(=O)NCC(N)=O)Cc2ccc(F)cc2)NC(=O)[C@H](CC(N)=O)NC(=O)[C@H](CCC(N)=O)NC1=O | – | human | intranasal, 300 µg single dose | – | severe adverse events | 0% |
| C/C(N)=N/C(=N\S(=O)(=O)c1ccc(C(F)(F)F)cc1)N1C[C@H](c2ccccc2)C(c2ccc(Cl)cc2)=N1 | – | C57BL/6 mouse, liver | intravenous, 10 mg/kg, observed value | – | AUC(0-inf) | 110000 ng·h/mL |
| CN(Cc1ccccc1)C(=O)CN1CCN(CC(=O)[O-])CCN(CC(=O)N(C)Cc2ccccc2)CC1.[18F-].[Sc+3] | – | mouse, brain | intravenous, 1 h | – | tracer uptake | 0.03 %ID/g |
| Cc1ncsc1-c1ccc(CNC(=O)[C@@H]2C[C@@H](O)CN2C(=O)[C@@H](NC(=O)COCC(C)(COCCOCCOCCNC(=O)C[C@@H]2N=C(c3ccc(Cl)cc3)c3c(sc(C)c3C)-n3c(C)nnc32)COCCOCCOCCNC(=O)C[C@@H]2N=C(c3ccc(Cl)cc3)c3c(sc(C)c3C)-n3c(C)nnc32)C(C)(C)C)cc1 | – | male C57BL/6 mouse, plasma | intravenous, 5 mg/kg, 8 h, single dose | – | concentration | 414 ng/mL |
| C=C[C@]1(C)C[C@@H](OC(=O)CSc2ccc(NC(=O)c3ccco3)cc2)[C@]2(C)[C@H](C)CC[C@]3(CCC(=O)[C@H]32)[C@@H](C)[C@@H]1O | – | Mycoplasma gallisepticum-infected chickens, plasma | intramuscular, 40 mg/kg, 1 h | – | plasma concentration | 5440 ng/mL and 4920 ng/mL and 5400 ng/mL and 3100 ng/mL and 5560 ng/mL and 2760 ng/mL and 3150 ng/mL |
| N#C[C@@H]1CCCN1C(=O)CNC(=O)c1ccnc2ccc(OCCCN3CCN(C(=O)CCc4ccc5c(c4)CN4CCN6CC(=O)[O][68Ga-]([O]C(=O)C4)([O]5)[O]c4ccc(CCC(=O)N5CCN(CCCOc7ccc8nccc(C(=O)NCC(=O)N9CCC[C@H]9C#N)c8c7)CC5)cc4C6)CC3)cc12 | – | BALB/c nude mice, U-87 MG tumour | 120 min post-injection | reference: tumour over blood | tumour-to-organ ratio | 10.3 ± 2.94 |
| O=C([O-])CN1CCN(CC(=O)[O-])CCN(Cc2cccc(C(=O)[O-])n2)CC1.[177Lu+3] | – | mouse, spleen | intravenous, 1 h | – | tracer uptake | 0.24 %ID/g |
| O=C(NS(=O)(=O)c1cccs1)c1cc2ccccc2n1Cc1ccc(Br)c2ccccc12 | – | mouse, plasma | oral, 2 mg/kg | – | AUC(0-inf) | 364 ± 114 ng·h/mL |
| COc1ccc2c(c1)C(C)(C)C(/C=C/C1=C(Oc3ccc(C(=O)NCCCCOc4cc(CN(Cc5ccccn5)Cc5ccccn5)cc(CN(Cc5ccccn5)Cc5ccccn5)c4)cc3)C(=C/C=C3/N(CCCCS(=O)(=O)[O-])c4ccc(OC)cc4C3(C)C)CCC1)=[N+]2CCCCS(=O)(=O)[O-].O=[N+]([O-])[O-].O=[N+]([O-])[O-].[99Tc+].[C-]#[O+].[C-]#[O+].[C-]#[O+].[Zn+2] | – | mouse, brain | 12 h | – | tracer uptake | 0.02 %ID/g |
| COc1cnc2cccc(N3CCc4c(cc(Cn5ccnc5)cc4-c4cn(C)nc4C(F)(F)F)C3=O)c2c1 | – | male CD-1 mouse, plasma | intravenous, 3 mg/kg | – | MRT(0-inf) | 30 min |
| COCC1CN(C2CCN(c3cc(OC)c(Nc4ncc(Br)c(Nc5ccc6c(c5P(C)(C)=O)OCCO6)n4)cc3C)CC2)C1 | first-in-human trial | human | oral, 90 mg once daily | treatment-related leading to dose suspension | adverse events | 0% |
| O=C(Nc1cnccc1-c1ccc([18F])nc1)c1ccnc(NC(=O)C2CC2)c1 | – | FVB/NJ mice, both sexes, liver | intravenous, 30 min, median, P-gp inhibitor pretreatment, with: tariquidar 15 mg/kg iv | – | SUV | 8.54 |
